Measured values pooled from the literature.
Lines come from different studies, so protocols differ. Numbers after ± are the reported error.

| SMILES | target or system | assay | test system | setting | scale | measurement | result |
| --- | --- | --- | --- | --- | --- | --- | --- |
| CC(=O)N[C@@H](Cc1c[nH]c2ccccc12)C(=O)N[C@@H](CCC(=O)O)C(=O)N[C@@H](Cc1c[nH]cn1)C(=O)N[C@@H](CC(=O)O)C(=O)COC(=O)c1c(C)cccc1C | EA.hy 926 | cell growth or viability, LDH | – | 26 h | – | IC50 | ~2.5 µM |
| Cc1cc(C)n(C(C(=O)OC(C)C)n2nc(C)cc2C)n1.F[P-](F)(F)(F)(F)F.[Cu+].c1ccc(P(c2ccccc2)c2ccccc2)cc1 | PSN1 | cell growth or viability, MTT | – | 72 h | – | IC50 | 21.9 µM |
| O=C(O)c1ccc([PH]([Au][Cl])(c2ccccc2)c2ccccc2)cc1 | CAKI-1 | cell growth or viability, resazurin | – | 72 h | – | IC50 | 45.7 µM |
| COc1ccc(C(c2c(C)nn(-c3ccccc3)c2O)c2c(C)nn(-c3ccccc3)c2O)cc1 | Ishikawa | cell growth or viability, MTT | – | 48 h | – | IC50 | > 40 µM |
| CC/C=C\C/C=C\C/C=C\C/C=C\C/C=C\C/C=C\CCC(=O)Nc1ccn(C2OC(CO)C(O)C2(F)F)c(=O)n1 (stereo not drawn) | HOP-92 | NCI60 screen | – | – | – | CC50 | > 100 µM |
| N=C(N)NCCC[C@@H]1NC(=O)[C@H](CCCCNC(=O)CC[C@H](NC(=O)CCOCCOCCOCCOCCNC(=O)CN2CCN(CC(=O)O)CCN(CC(=O)O)CCN(CC(=O)O)CC2)C(=O)NCCCC[C@@H]2NC(=O)[C@@H](Cc3ccccc3)NC(=O)[C@H](CC(=O)O)NC(=O)CNC(=O)[C@H](CCCNC(=N)N)NC2=O)NC(=O)[C@@H](Cc2ccccc2)NC(=O)[C@H](CC(=O)O)NC(=O)CNC1=O [indium-111 labelled] | – | – | athymic nude mice, female, U-87 MG glioma xenograft, tumour and liver | intravenous, 4 h | reference: tumour over liver | tumour to tissue ratio | 1.84 ± 0.23 |
| CNC(=O)c1cc(Oc2ccc(NC(=O)c3ccc(-c4ccccc4OC(=O)CCC(=O)OC4OC5OC6(C)CCC7C(C)CCC(C4C)C57OO6)cn3)cc2)ccn1 (stereo not drawn) | Huh-7 | cell growth or viability, MTT | – | 72 h | – | IC50 | 5.83 µM |
| Cc1cc(C)c(-n2ccn(-c3c(C)cc(C)cc3C)c2=[Se])c(C)c1.[Cl][Au] | A-375 | cell growth or viability, MTT | – | 72 h | – | IC50 | 0.7 µM |
| CC[C@H](C)[C@H](NC(=O)[C@@H](NC(=O)[C@H](CC(=O)O)NC(C)=O)[C@@H](C)O)C(=O)N[C@@H](CCCNC(=N)N)C(=O)N[C@@H](CC(C)C)C(=O)N[C@@H](CC(C)C)C(=O)N[C@@H](Cc1ccccc1)C(=O)N[C@@H](CCC(N)=O)C(=O)N[C@@H](CC(C)C)C(=O)N[C@@H](CCSC)C(=O)N[C@@H](CCCNC(=N)N)C(=O)N1CCC[C@H]1C(=O)N1CCC[C@H]1C(=O)N[C@@H](CC(N)=O)C(=O)N[C@@H](CCSC)C(=O)N[C@H](C(=O)N1CCC[C@H]1C(=O)N[C@@H](C)C(=O)N[C@H](C(=O)N[C@@H](CC(N)=O)C(=O)N[C@@H](C)C(N)=O)C(C)C)[C@@H](C)O | – | measured: HA-41 tetramer | antigen-experienced tetramer+ CD4 T cells, healthy adults, HLA-DRB1*0101 | dose not given | – | α4β7− CCR9+ cells | 0% |
| N=C(N)NCCC[C@@H]1NC(=O)[C@H](CCCCNC(=O)CCOCCOCCOCCOCCNC(=O)CC[C@H](NC(=O)CCOCCOCCOCCOCCNC(=O)CC[C@H](NC(=O)CN2CCN(CC(=O)O)CCN(CC(=O)O)CCN(CC(=O)O)CC2)C(=O)NCCOCCOCCOCCOCCC(=O)N[C@@H](CCC(=O)NCCOCCOCCOCCOCCC(=O)NCCCC[C@@H]2NC(=O)[C@@H](Cc3ccccc3)NC(=O)[C@H](CC(=O)O)NC(=O)CNC(=O)[C@H](CCCNC(=N)N)NC2=O)C(=O)NCCOCCOCCOCCOCCC(=O)NCCCC[C@@H]2NC(=O)[C@@H](Cc3ccccc3)NC(=O)[C@H](CC(=O)O)NC(=O)CNC(=O)[C@H](CCCNC(=N)N)NC2=O)C(=O)NCCOCCOCCOCCOCCC(=O)NCCCC[C@@H]2NC(=O)[C@@H](Cc3ccccc3)NC(=O)[C@H](CC(=O)O)NC(=O)CNC(=O)[C@H](CCCNC(=N)N)NC2=O)NC(=O)[C@@H](Cc2ccccc2)NC(=O)[C@H](CC(=O)O)NC(=O)CNC1=O [indium-111 labelled] | – | – | female athymic nude mice, heart | intravenous, 3 µCi, 24 h, U-87 MG glioma xenograft | – | tissue uptake | 0.55 ± 0.06 %ID/g |
| COc1cccc2c1C(=O)c1c(O)c3c(c(O)c1C2=O)C[C@@](O)(C(=O)CO)C[C@@H]3O[C@H]1C[C@H](NC(=O)CCN2C(=O)CC(SC[C@H](N)C(=O)N3CCC[C@H]3C(=O)N[C@@H](CCCCN)C(=O)N[C@@H](CCCCN)C(=O)N[C@@H](CCCCN)C(=O)N[C@@H](CCCNC(=N)N)C(=O)N[C@@H](CCCCN)C(=O)N[C@H](C(N)=O)C(C)C)C2=O)[C@H](O)[C@H](C)O1 (stereo partly drawn) | MCF7/ADR doxorubicin-resistant | CCK-8 | – | 96 h, doxorubicin-equivalent dose | – | IC50 | 4.85 ± 0.83 µM |
| COc1cc(-c2oc3cc(OC)c(OC)c(O)c3c(=O)c2OC)ccc1O | human Neutrophil | elastase release, inhibitor | – | – | – | IC50 | 6.66 µM |
| CN[C@](C)(C[18F])C(=O)O | MDA-MB-468 tumour model | – | host not given, tumour | 2 h, tumour-bearing | – | tracer uptake | 1.5 %ID/g |
| O=C(Nc1ccc(Br)cc1)c1cc(Br)cc(Br)c1O | HPNE | cell growth or viability, resazurin | – | 72 h | – | IC50 | 9.14 µM |
| CSCC[C@H](N)C(=O)N[C@@H](C)C(=O)N[C@@H](Cc1c[nH]c2ccccc12)C(=O)N[C@@H](Cc1c[nH]cn1)C(=O)N[C@@H](CC(=O)O)C(=O)N[C@@H](CC(=O)O)C(=O)N[C@@H](CCC(=O)O)C(=O)N[C@@H](CCC(=O)O)C(=O)N[C@@H](Cc1ccccc1)C(=O)N[C@@H](C)C(=O)N[C@@H](CCCNC(=N)N)C(=O)N[C@@H](CCCNC(=N)N)C(=O)N[C@@H](CCCNC(=N)N)C(=O)N[C@@H](CCCNC(=N)N)C(=O)NCCCCCC(=O)NCCCCC(NC(=O)CCCCCNC(=O)[C@H](CCCNC(=N)N)NC(=O)[C@H](CCCNC(=N)N)NC(=O)[C@H](CCCNC(=N)N)NC(=O)[C@H](CCCNC(=N)N)NC(=O)[C@H](C)NC(=O)[C@H](Cc1ccccc1)NC(=O)[C@H](CCC(=O)O)NC(=O)[C@H](CCC(=O)O)NC(=O)[C@H](CC(=O)O)NC(=O)[C@H](CC(=O)O)NC(=O)[C@H](Cc1c[nH]cn1)NC(=O)[C@H](Cc1c[nH]c2ccccc12)NC(=O)[C@H](C)NC(=O)[C@@H](N)CCSC)C(=O)NCCCCC(NC(=O)C(CCCCNC(=O)CCCCCNC(=O)[C@H](CCCNC(=N)N)NC(=O)[C@H](CCCNC(=N)N)NC(=O)[C@H](CCCNC(=N)N)NC(=O)[C@H](CCCNC(=N)N)NC(=O)[C@H](C)NC(=O)[C@H](Cc1ccccc1)NC(=O)[C@H](CCC(=O)O)NC(=O)[C@H](CCC(=O)O)NC(=O)[C@H](CC(=O)O)NC(=O)[C@H](CC(=O)O)NC(=O)[C@H](Cc1c[nH]cn1)NC(=O)[C@H](Cc1c[nH]c2ccccc12)NC(=O)[C@H](C)NC(=O)[C@@H](N)CCSC)NC(=O)CCCCCNC(=O)[C@H](CCCNC(=N)N)NC(=O)[C@H](CCCNC(=N)N)NC(=O)[C@H](CCCNC(=N)N)NC(=O)[C@H](CCCNC(=N)N)NC(=O)[C@H](C)NC(=O)[C@H](Cc1ccccc1)NC(=O)[C@H](CCC(=O)O)NC(=O)[C@H](CCC(=O)O)NC(=O)[C@H](CC(=O)O)NC(=O)[C@H](CC(=O)O)NC(=O)[C@H](Cc1c[nH]cn1)NC(=O)[C@H](Cc1c[nH]c2ccccc12)NC(=O)[C@H](C)NC(=O)[C@@H](N)CCSC)C(N)=O (stereo partly drawn) | BMMs from C57BL/6 mice | osteoclast differentiation | – | 3 days, with: RANKL | – | IC50 | 0.14 µM |

Some of these lines once more:
| SMILES | target or system | assay | test system | setting | scale | measurement | result |
| --- | --- | --- | --- | --- | --- | --- | --- |
| CC[C@H](C)[C@H](NC(=O)[C@@H](NC(=O)[C@H](CC(=O)O)NC(C)=O)[C@@H](C)O)C(=O)N[C@@H](CCCNC(=N)N)C(=O)N[C@@H](CC(C)C)C(=O)N[C@@H](CC(C)C)C(=O)N[C@@H](Cc1ccccc1)C(=O)N[C@@H](CCC(N)=O)C(=O)N[C@@H](CC(C)C)C(=O)N[C@@H](CCSC)C(=O)N[C@@H](CCCNC(=N)N)C(=O)N1CCC[C@H]1C(=O)N1CCC[C@H]1C(=O)N[C@@H](CC(N)=O)C(=O)N[C@@H](CCSC)C(=O)N[C@H](C(=O)N1CCC[C@H]1C(=O)N[C@@H](C)C(=O)N[C@H](C(=O)N[C@@H](CC(N)=O)C(=O)N[C@@H](C)C(N)=O)C(C)C)[C@@H](C)O | – | measured: HA-41 tetramer | antigen-experienced tetramer+ CD4 T cells, healthy adults, HLA-DRB1*0101 | dose not given | – | α4β7− CCR9+ cells | 0% |
